Measurements gathered from unrelated publications.
± marks the error that the study gave.
Ribonucleoside-diphosphate reductase large subunit: Ribonucleoside-diphosphate reductase large subunit (Homo sapiens, UniProt P23921)
BCL2L1: Bcl-2-like protein 1 (BCL2L1, Homo sapiens, UniProt Q07817)

For `CC(=O)N[C@@H]1[C@@H](O[C@H](C)C(=O)N[C@@H](C)C(=O)O)[C@H](O)[C@@H](CN)O[C@@H]1O`, Kd read “binds” (NOD2 (Homo sapiens, UniProt Q9HC29); binding, BSI; HEK293T vesicles).
For `Oc1coccc1=S`, the Kd was 198 µM (Carbonic anhydrase 2, Co(II)-substituted (CA2, Bos taurus, UniProt P00921); binding, UV-vis titration; overall).
With `CC(=O)N[C@@H](Cc1c[nH]c2ccccc12)C(=O)N[C@@H](CCCCN)C(=O)N[C@@H](CCCCN)C(=O)N[C@@H](CC(C)C)C(=O)N[C@@H](CC(C)C)C(=O)N[C@@H](CCCCN)C(=O)N[C@@H](CC(C)C)C(=O)N[C@@H](CC(C)C)C(=O)N[C@@H](CCCCN)C(=O)N[C@@H](CCCCN)C(=O)N[C@@H](CC(C)C)C(=O)N[C@@H](CC(C)C)C(=O)N[C@@H](CCCCN)C(=O)N[C@@H](CC(C)C)C(=O)N[C@@H](C)C(=O)NCC(N)=O` the Kd was 0.0025 ± 0.0003 µM (HIV-1 RRE hairpin RNA; competitive fluorescence anisotropy; pH 7.4, 20 °C, together with: rhodamine-Rev peptide).
`COc1cccc2c1C(=O)c1c(O)c3c(c(O)c1C2=O)C[C@@](O)(C(C)=O)C[C@@H]3O[C@H]1C[C@H](N)[C@H](O)[C@H](C)O1` gave a Kd of 13.1 ± 2.1 µM (HIV-1 nucleocapsid-SL4 RNA complex; binding, ESI-FTMS; pH 7.5).
`CCCCCCCCCCCCCCCC(=O)OC[C@H](COP(=O)(O)OC1[C@H](O)[C@H](OP(=O)(O)O)C(OP(=O)(O)O)[C@H](OP(=O)(O)O)[C@H]1O)OC(=O)CCCCCCCCCCCCCCC` (stereo partly drawn) has a Kd of 0.007 ± 0.002 µM (3-phosphoinositide-dependent protein kinase 1, PH domain (PDPK1, Homo sapiens, UniProt O15530, T513E); lipid binding, FRET competition; plasma membrane-like bilayers).
`Cn1c[n+]([C@@H]2O[C@H](COP(=O)(O)OP(=O)([O-])OP(=O)(O)OC[C@H]3O[C@@H](n4cnc5c(=O)[nH]c(N)nc54)[C@H](O)[C@@H]3O)[C@@H](O)[C@H]2O)c2nc(N)[nH]c(=O)c21` has a Kd of 14 µM (Eif4e (Mus musculus, UniProt P63073); differential scanning fluorimetry).
With `O=C(N/N=C/c1cc(-c2ccccc2)ccc1O)c1ccccc1O` the Kd was 8.7 µM (Ribonucleoside-diphosphate reductase large subunit; binding, fluorescence).
`[I-].[K+]` has a Kd of 710 µM (SLC4A1 (Homo sapiens, UniProt P02730); Cl- exchange, inhibitor, 36Cl flux; erythrocytes, external; pH 8.5, 0 °C, internal Cl- 156 mM).
`CN(C)c1cccc2c(S(=O)(=O)NCCCCCCCCCCC(=O)O)cccc12` has a Kd of > 3.3 µM (FABP1 (Homo sapiens, UniProt P07148); binding, fluorescence titration; low-affinity site, together with: FABP1 0.3 µM).
The Kd of `CC(C)C[C@H](N)C(=O)O` is reported as 2160 ± 411 µM (Methyl-accepting chemotaxis protein Tlp3, sensing domain (Campylobacter jejuni, UniProt Q0P864); binding, thermal shift curve fitting; at Tm sensing domain).
`Cn1cc(NC(=O)c2cc(NC(=O)c3cc(NC=O)cn3C)cn2C)cc1C(=O)NCCC(=N)N` gave a Kd of 58.1 ± 6.3 µM (HIV-1 nucleocapsid-SL3 RNA complex; binding, ESI-FTMS; pH 7.5).
For `Nc1nc2c(ncn2[C@@H]2O[C@H](COP(=O)(O)OP(=O)(O)OP(=O)(O)O)[C@@H](O)[C@H]2O)c(=O)[nH]1`, the Kd was > 200 µM (E3 ubiquitin-protein ligase Mdm2, RING domain (MDM2, Homo sapiens, UniProt Q00987); ATP binding; GST-fused residues 400-491).
`CC(=O)N[C@@H](CC(C)C)C(=O)N[C@@H](CCCCN)C(=O)N[C@@H](CCCCN)C(=O)N[C@@H](CC(C)C)C(=O)N[C@@H](CC(C)C)C(=O)N[C@@H](CCCCN)C(=O)N[C@@H](CC(C)C)C(=O)N[C@@H](CC(C)C)C(=O)N[C@@H](CCCCN)C(=O)N[C@@H](CCCCN)C(=O)N[C@@H](CC(C)C)C(=O)N[C@@H](CC(C)C)C(=O)N[C@@H](CCCCN)C(=O)N[C@@H](Cc1c[nH]c2ccccc12)C(=O)N[C@@H](C)C(=O)NCC(N)=O` has a Kd of 0.0078 ± 0.0006 µM (HIV-1 TAR hairpin RNA; competitive fluorescence anisotropy; pH 7.4, 20 °C, together with: rhodamine-Rev peptide).
With `Nc1ncnc2c1ncn2[C@@H]1O[C@H](COP(=O)(O)OP(=O)(O)NP(=O)(O)O)[C@@H](O)[C@H]1O` the Kd was 2.47 µM (Heat shock 70 kDa protein 1A, phosphorylated (HSPA1A, Homo sapiens, UniProt P0DMV8, T66S); binding, isothermal titration calorimetry; pH 7.5, Mg2+ free).
`O=P(O)(O)O[C@@H]1[C@H](O)[C@H](O)[C@@H](OP(=O)(O)O)[C@H](OP(=O)(O)O)[C@H]1O` gave a Kd of 11 ± 2 µM (Unconventional myosin-Ie, tail domain (MYO1E, Homo sapiens, UniProt Q12965); binding, stopped-flow fluorescence; pH 7.0, 22 °C, together with: competing PtdIns(4,5)P2 LUVs 2%, 1 µM calmodulin).
The Kd of `Nc1ncnc2c1ncn2-c1ccc(/C=N/NC(=O)c2ccccc2O)cc1` is reported as 19.3 µM (Ribonucleoside-diphosphate reductase large subunit; binding, fluorescence; pH 8).
With `CC(C)[C@H](N)C(=O)O` the Kd was 2500 ± 166 µM (Methyl-accepting chemotaxis protein Tlp3 (Campylobacter jejuni, UniProt Q0P864); binding, ITC).
`Nc1ncnc2c1ncn2[C@@H]1O[C@H](COP(=O)(O)OP(=O)(O)O)[C@@H](O)[C@H]1O` gave a Kd of 41 ± 2 µM (kinase; binding, surface plasmon resonance; 25 °C, 3% DMSO).
`CN(C)c1cccc2c(S(N)(=O)=O)cccc12` gave a Kd of 1.6 µM (CA2 (Bos taurus, UniProt P00921); fluorescence competition binding; lower = stronger binding).
For `GGTFXGYWADLXAF (side-chain stapled)`, the Kd was 0.002 ± 0.00031 µM (MDM2 (Homo sapiens, UniProt Q00987); binding, bacterial surface display flow cytometry; peptide, Escherichia coli cell surface; 3 h, on ice, propargyl ether stabilized peptide, together with: propargyl ether 500 µM).
`Cn1nc(CC(=O)Nc2cc(S(=O)(=O)Nc3cccc(Cl)c3)ccc2O)c2ccccc2c1=O` gave a Kd of 8.5 ± 1.1 µM (APOE (Homo sapiens, UniProt P02649, C130R/S157C); fluorescence quenching titration; Alexa488-labelled protein, HEPES buffer; pH 7.4, 25 °C, label at position 139).
`Ristocetin` gave a Kd of 2 ± 0.3 µM (Polyubiquitin-B, residues 1-75 fusion (UBB, Homo sapiens, UniProt P0CG47); binding, SPR; 25 °C, ubiquitin fusion peptide).
`O=C(N/N=C/c1cccnc1)c1c(O)ccc2ccccc12` gave a Kd of 16.3 µM (Ribonucleoside-diphosphate reductase large subunit; binding, fluorescence).
The Kd of `CC(=O)N[C@H]1[C@H](O[C@H]2[C@H](O)[C@@H](NC(C)=O)[C@H](O[C@H]3[C@H](O)[C@@H](NC(C)=O)C(O)O[C@@H]3CO)O[C@@H]2CO)O[C@H](CO)[C@@H](O[C@@H]2O[C@H](CO)[C@@H](O[C@@H]3O[C@H](CO)[C@@H](O[C@@H]4O[C@H](CO)[C@@H](O)[C@H](O)[C@H]4NC(C)=O)[C@H](O)[C@H]3NC(C)=O)[C@H](O)[C@H]2NC(C)=O)[C@@H]1O` (stereo partly drawn) is reported as 0.6 ± 0.1 µM (Chitinase-3-like protein 2 (CHI3L2, Homo sapiens, UniProt Q15782); tryptophan fluorescence; pH 7.5).
`FGAQLNRIAEDF` gave a Kd of 0.0021 ± 0.0002 µM (BCL2L1; yeast display titration; peptide; 2 h, pH 8.0, room temperature).
The Kd of `CC1=C(/C=C/C(C)=C\C=C\C(C)=C\CO)C(C)(C)CCC1` is reported as 0.068 ± 0.007 µM (Retinol-binding protein 2 (Rbp2, Rattus norvegicus, UniProt P06768); binding, fluorescence titration; pH 7.4, 25 °C).
`O=c1c(O)c(-c2ccc(O)cc2)oc2cc(O)cc(O)c12` gave a Kd of 25 µM (chemokine CCL2, human and mouse; fluorescence quenching; summary over orthologs and variants).
For `O=C1Nc2ccccc2/C1=N/NC(=O)c1ccccc1O`, the Kd was 15 µM (Ribonucleoside-diphosphate reductase large subunit; binding, fluorescence; pH 8).
For `C[C@H](N)C(=O)N[C@@H](CCCNC(=N)N)C(=O)N[C@H](C(=O)N[C@@H](CCCCN)C(=O)N[C@@H](CCC(N)=O)C(=O)N[C@H](C(=O)N[C@@H](C)C(=O)N[C@@H](CCCNC(=N)N)C(=O)N[C@@H](CCCCN)C(=O)N[C@@H](CO)C(=O)N[C@H](C(=O)NCC(=O)O)[C@@H](C)O)[C@@H](C)O)[C@@H](C)O`, the Kd was 56.2 ± 11.1 µM (Baculoviral IAP repeat-containing protein 5.1-A (birc5.1-a, Xenopus laevis, UniProt Q8JGN5); ITC; pH 7.6, 25 °C).
For `AGAQLHRFADDY`, the Kd was 0.03 ± 0.009 µM (BCL2L1; yeast display titration; peptide; 2 h, pH 8.0, room temperature).

Some of these lines once more:
For `GGTFXGYWADLXAF (side-chain stapled)`, the Kd was 0.002 ± 0.00031 µM (MDM2 (Homo sapiens, UniProt Q00987); binding, bacterial surface display flow cytometry; peptide, Escherichia coli cell surface; 3 h, on ice, propargyl ether stabilized peptide, together with: propargyl ether 500 µM).
`Cn1nc(CC(=O)Nc2cc(S(=O)(=O)Nc3cccc(Cl)c3)ccc2O)c2ccccc2c1=O` gave a Kd of 8.5 ± 1.1 µM (APOE (Homo sapiens, UniProt P02649, C130R/S157C); fluorescence quenching titration; Alexa488-labelled protein, HEPES buffer; pH 7.4, 25 °C, label at position 139).
